# Measurements collected from several papers.
# Each numbered part is a random draw from the data of one study; scales do not carry over between parts.
# UniProt P22607, sequence (whole entry, looked up): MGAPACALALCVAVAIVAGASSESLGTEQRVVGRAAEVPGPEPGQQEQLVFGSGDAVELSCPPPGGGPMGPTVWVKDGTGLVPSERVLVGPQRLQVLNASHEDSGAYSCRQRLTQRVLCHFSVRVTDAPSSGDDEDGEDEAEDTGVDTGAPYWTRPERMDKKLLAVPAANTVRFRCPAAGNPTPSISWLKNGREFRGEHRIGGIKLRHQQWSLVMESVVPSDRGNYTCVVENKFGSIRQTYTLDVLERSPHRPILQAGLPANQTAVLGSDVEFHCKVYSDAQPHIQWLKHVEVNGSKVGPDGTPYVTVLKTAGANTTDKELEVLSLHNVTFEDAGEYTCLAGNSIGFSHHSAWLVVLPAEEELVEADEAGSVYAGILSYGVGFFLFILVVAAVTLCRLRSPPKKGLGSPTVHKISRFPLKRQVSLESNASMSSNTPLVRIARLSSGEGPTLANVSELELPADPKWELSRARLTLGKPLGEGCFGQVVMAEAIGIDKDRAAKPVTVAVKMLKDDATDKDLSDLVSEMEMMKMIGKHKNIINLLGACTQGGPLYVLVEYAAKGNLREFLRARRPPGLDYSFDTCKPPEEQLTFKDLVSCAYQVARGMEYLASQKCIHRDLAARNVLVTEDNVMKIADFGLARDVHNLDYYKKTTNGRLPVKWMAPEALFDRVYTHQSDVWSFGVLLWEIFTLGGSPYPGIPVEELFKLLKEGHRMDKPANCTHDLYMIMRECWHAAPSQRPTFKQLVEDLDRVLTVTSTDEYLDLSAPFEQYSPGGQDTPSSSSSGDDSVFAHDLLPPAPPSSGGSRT
# UniProt P42685, sequence (whole entry, looked up): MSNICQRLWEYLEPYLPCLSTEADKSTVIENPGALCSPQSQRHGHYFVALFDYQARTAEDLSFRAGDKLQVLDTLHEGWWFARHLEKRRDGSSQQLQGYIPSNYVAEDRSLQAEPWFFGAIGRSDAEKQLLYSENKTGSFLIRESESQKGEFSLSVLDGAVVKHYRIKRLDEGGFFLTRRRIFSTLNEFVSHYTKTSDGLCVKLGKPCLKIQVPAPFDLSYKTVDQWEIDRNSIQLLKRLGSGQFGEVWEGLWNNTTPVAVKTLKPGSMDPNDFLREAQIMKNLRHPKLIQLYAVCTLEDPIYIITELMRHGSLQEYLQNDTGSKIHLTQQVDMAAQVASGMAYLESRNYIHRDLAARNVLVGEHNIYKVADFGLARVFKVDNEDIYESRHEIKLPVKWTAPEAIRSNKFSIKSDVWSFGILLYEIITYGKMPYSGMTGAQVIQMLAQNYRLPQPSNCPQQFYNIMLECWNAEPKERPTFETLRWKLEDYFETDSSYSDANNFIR
# UniProt Q96PY6, sequence (whole entry, looked up): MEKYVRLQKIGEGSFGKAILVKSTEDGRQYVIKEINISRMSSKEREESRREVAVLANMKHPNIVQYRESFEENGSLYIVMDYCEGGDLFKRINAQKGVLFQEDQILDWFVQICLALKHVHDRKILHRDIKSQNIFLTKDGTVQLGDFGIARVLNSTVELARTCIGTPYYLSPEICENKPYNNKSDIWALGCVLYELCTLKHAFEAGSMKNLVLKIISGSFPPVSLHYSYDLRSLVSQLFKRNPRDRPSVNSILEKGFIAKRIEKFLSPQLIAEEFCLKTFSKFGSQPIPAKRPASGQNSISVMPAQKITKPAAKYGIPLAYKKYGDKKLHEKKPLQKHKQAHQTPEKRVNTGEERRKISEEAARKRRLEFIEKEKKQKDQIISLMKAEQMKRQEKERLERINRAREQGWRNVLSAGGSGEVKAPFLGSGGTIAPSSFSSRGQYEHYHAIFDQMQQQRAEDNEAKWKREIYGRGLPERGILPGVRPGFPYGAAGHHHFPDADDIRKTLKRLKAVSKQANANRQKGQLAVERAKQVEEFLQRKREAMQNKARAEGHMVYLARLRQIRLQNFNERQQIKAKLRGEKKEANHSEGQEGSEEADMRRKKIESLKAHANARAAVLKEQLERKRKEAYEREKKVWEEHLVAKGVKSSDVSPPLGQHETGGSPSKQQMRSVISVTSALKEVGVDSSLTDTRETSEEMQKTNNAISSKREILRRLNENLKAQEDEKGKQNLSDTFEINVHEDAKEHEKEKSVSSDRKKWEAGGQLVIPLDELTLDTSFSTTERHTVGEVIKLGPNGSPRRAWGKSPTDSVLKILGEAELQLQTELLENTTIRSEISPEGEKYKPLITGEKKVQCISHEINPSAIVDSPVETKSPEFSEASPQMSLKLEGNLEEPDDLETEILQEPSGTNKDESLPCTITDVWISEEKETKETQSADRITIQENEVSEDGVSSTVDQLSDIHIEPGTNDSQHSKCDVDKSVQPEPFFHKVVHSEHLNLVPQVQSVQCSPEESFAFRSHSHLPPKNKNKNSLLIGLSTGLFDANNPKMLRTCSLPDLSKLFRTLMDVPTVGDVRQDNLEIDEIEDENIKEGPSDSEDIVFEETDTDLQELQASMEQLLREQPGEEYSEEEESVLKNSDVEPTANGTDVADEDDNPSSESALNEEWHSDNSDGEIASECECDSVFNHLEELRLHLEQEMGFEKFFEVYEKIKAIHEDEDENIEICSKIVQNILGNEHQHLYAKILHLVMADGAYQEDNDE
# UniProt P36896, sequence (whole entry, looked up): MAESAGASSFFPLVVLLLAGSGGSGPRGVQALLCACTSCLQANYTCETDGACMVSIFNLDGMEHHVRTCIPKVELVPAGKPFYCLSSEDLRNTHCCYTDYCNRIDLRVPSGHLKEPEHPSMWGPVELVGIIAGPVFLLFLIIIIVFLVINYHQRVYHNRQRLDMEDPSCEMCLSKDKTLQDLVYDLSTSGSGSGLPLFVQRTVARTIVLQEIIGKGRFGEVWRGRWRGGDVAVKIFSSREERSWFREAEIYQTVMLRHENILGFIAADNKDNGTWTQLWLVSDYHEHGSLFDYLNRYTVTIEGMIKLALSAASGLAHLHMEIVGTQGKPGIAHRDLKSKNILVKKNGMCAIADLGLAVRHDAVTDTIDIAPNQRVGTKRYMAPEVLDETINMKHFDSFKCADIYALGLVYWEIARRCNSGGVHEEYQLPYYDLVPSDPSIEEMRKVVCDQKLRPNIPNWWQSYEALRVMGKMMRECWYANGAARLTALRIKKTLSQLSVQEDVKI
# UniProt Q12866, sequence (whole entry, looked up): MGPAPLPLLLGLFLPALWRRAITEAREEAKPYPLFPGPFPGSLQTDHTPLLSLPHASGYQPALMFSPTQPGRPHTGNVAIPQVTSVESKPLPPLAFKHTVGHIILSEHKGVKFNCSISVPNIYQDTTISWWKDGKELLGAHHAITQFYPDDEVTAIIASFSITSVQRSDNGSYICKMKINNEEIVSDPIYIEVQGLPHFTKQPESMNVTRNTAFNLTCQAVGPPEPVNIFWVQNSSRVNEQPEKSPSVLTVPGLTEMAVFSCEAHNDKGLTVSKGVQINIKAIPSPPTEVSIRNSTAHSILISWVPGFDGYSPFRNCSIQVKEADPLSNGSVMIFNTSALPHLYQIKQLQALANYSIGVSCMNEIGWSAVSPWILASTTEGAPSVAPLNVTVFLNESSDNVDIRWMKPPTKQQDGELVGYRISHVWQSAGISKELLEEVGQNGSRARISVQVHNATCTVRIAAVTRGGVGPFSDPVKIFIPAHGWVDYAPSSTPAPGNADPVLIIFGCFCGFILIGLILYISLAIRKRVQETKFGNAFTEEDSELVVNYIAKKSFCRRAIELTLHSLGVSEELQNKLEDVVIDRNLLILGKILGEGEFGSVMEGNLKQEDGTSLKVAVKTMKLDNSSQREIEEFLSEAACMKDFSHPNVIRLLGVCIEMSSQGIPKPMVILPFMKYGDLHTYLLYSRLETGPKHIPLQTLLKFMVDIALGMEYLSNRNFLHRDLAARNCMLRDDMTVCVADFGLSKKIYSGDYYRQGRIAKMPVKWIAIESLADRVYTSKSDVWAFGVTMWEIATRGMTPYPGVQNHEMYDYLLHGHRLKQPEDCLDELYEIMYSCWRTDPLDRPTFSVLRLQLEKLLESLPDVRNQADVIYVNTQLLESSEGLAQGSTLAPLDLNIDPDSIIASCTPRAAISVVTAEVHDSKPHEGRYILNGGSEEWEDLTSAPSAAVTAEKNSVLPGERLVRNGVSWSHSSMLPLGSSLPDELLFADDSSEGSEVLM
# UniProt P30291, sequence (whole entry, looked up): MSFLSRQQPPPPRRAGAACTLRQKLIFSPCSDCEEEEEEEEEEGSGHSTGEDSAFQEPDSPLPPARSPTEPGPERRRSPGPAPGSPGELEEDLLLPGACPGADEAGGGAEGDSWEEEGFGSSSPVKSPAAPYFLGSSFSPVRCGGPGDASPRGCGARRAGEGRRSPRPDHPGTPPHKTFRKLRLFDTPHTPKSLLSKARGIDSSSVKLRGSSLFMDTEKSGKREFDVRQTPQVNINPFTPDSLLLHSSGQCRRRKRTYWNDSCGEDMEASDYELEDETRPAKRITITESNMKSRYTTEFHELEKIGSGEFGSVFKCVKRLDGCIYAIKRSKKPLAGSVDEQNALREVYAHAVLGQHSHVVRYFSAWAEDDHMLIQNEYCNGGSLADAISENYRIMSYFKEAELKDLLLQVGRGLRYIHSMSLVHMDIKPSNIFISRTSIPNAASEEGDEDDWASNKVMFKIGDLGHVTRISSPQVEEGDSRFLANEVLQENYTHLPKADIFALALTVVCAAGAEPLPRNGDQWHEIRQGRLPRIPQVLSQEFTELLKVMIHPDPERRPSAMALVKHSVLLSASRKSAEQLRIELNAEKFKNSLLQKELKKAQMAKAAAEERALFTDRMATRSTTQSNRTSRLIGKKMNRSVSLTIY
# UniProt Q96PN8, sequence (whole entry, looked up): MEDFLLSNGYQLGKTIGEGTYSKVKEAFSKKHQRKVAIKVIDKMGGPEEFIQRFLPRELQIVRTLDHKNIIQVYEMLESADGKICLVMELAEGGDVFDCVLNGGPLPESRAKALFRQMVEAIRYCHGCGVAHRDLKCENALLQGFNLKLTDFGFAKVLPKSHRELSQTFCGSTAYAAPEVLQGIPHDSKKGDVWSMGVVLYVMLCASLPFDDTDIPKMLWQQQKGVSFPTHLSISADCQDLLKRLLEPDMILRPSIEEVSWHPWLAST

# Study 1
# Target: UBE2I UBC core domain (UniProt P63279)
# Method: yeast two-hybrid
# Medium: yeast
# Setting: mostly zero background
# Reference: not given
# Direction: higher = stronger interaction
# B1: TRIM72 RING domain (UniProt Q6ZMU5); chain APGLLHQELSCPLCLQLFDAPVTAECGHSFCRACLGRVAGEPAADGTVLCPCCQAPTRPQALST
# B2: MID1 RING domain (UniProt O15344); chain METLESELTCPICLELFEDPLLLPCAHSLCFNCAHRILVSHCATNESVESITAFQCPTCRHVITLSQRGL
# B3: ZNF598 RING domain (UniProt Q86UK7); chain AAAPERGGGSCVLCCGDLEATALGRCDHPVCYRCSTKMRVLCEQRYCAVCREELRQVVFGK
Sequence,lacZ reporter activity
B1 (TRIM72 RING domain),0
QHHELTSLFECPVCFDYVLPPILQCQAGHLVCNQCRQKLSCCPTCRGALTPSIRNL (SIAH2 RING domain (UniProt O43255)),0
QLRRLQEERTCKVCMDKEVSVVFIPCGHLVVCQECAPSLRKCPICRGIIKGTVRTF (BIRC2 RING domain (UniProt Q13490)),0
QLRRLQEERTCKVCMDKEVSIVFIPCGHLVVCKDCAPSLRKCPICRSTIKGTVRTF (BIRC3 RING domain (UniProt Q13489)),0
B2 (MID1 RING domain),0
B3 (ZNF598 RING domain),0
FASPPDSNFVCSVCHGVLKRPARLPCSHIFCKKCILRWLARQKTCPCCRKEVKRKKVVH (RNF151 RING domain (UniProt Q2KHN1)),0
VTLSLTLPITCHICLGKVRQPVICINNHVFCSICIDLWLKNNSQCPACRVPITPENPCK (OBI1 RING domain (UniProt Q5W0B1)),0

# Study 2
# SMILES: Oc1ccc(Nc2nc(-c3ccc(Cl)cc3)cs2)cc1
# Observed: enzyme activity
# Action: inhibitor
# Concentration: 0.5 µM
# Reference: control
target,remaining activity [%]
"Serine/threonine-protein kinase ULK2 (ULK2, Homo sapiens, UniProt Q8IYT8)",101
"Tyrosine-protein kinase Mer (MERTK, Homo sapiens, UniProt Q12866)",97.1
"Serine/threonine-protein kinase Nek1 (NEK1, Homo sapiens, UniProt Q96PY6)",104
"MAP kinase-activated protein kinase 2 (MAPKAPK2, Homo sapiens, UniProt P49137)",100
"Wee1-like protein kinase (WEE1, Homo sapiens, UniProt P30291)",93.2
"Ephrin type-A receptor 3 (EPHA3, Homo sapiens, UniProt P29320)",110
"Ribosomal protein S6 kinase alpha-2 (RPS6KA2, Homo sapiens, UniProt Q15349)",101
"Tyrosine-protein kinase FRK (FRK, Homo sapiens, UniProt P42685)",106
"Tyrosine-protein kinase Lck (LCK, Homo sapiens, UniProt P06239)",99.8
"Fibroblast growth factor receptor 3 (FGFR3, Homo sapiens, UniProt P22607)",96.5
"Activin receptor type-1B (ACVR1B, Homo sapiens, UniProt P36896)",89.5
"Serine/threonine-protein kinase ULK3 (ULK3, Homo sapiens, UniProt Q6PHR2)",94.4
"Angiopoietin-1 receptor (TEK, Homo sapiens, UniProt Q02763)",104
"Macrophage-stimulating protein receptor (MST1R, Homo sapiens, UniProt Q04912)",92.5

# Study 3
# Target: Cellular tumor antigen p53, full length (TP53, Homo sapiens, UniProt P04637, residues 1-393)
# Method: protein-binding microarray
# Molecule type: hairpin DNA
# Medium: in vitro
# Concentration: not given
# Setting: whole hairpin DNA, median over replicate spots
# Reference: not given
# Direction: higher = stronger binding
Oligonucleotide,median fluorescence [a.u.]
CCACACGGGGTGGCATGCCTTCCTAGGCATGCCACCCCGTGTGGACACTC (5mC at 37),6230
CCACACGTGCTGGCATGCCTTCCTAGGCATGCCAGCACGTGTGGACACTC (5mC at 10),6940
CCACCGGTGGTGGCATGCCTTCCTAGGCATGCCACCACCGGTGGACACTC (5mC at 5),7280
CCACAAGTGGTGGCATGCCTTCCTAGGCATGCCACCACTTGTGGACACTC,7780
CGGACATGCCCGGACATGTCTCCTGACATGTCCGGGCATGTCCGACACTC,20300
CCACACGTGGTGGCATGCCTTCCTAGGCATGCCACCACGTGTGGACACTC (5mC at 32),6610
CCACTCGTGGTGGCATGCCTTCCTAGGCATGCCACCACGAGTGGACACTC,6680
CCACACGTGGTGGAATGCCTTCCTAGGCATTCCACCACGTGTGGACACTC,4110

# Study 4
# SMILES: CCC(=O)N[C@@H]1CC[C@H](C(=O)N(C)c2ccc(-c3nc4ccccc4o3)cc2)C1
# Observed: cell-free assay
# Method: competition with immobilised ligand
# Concentration: 1 µM
target,remaining binding [%]
"Insulin receptor (INSR, Homo sapiens, UniProt P06213)",93
"Testis-specific serine/threonine-protein kinase 3 (TSSK3, Homo sapiens, UniProt Q96PN8)",97
"Cyclin-dependent kinase 14 (CDK14, Homo sapiens, UniProt O94921)",100
"eIF-2-alpha kinase GCN2, C-terminal kinase domain (EIF2AK4, Homo sapiens, UniProt Q9P2K8, S808G)",54
"Myosin light chain kinase, smooth muscle (MYLK, Homo sapiens, UniProt Q15746)",62

# A few entries again (study 2):
target,remaining activity [%]
"Serine/threonine-protein kinase ULK2 (ULK2, Homo sapiens, UniProt Q8IYT8)",101
"Tyrosine-protein kinase Mer (MERTK, Homo sapiens, UniProt Q12866)",97.1
"Serine/threonine-protein kinase Nek1 (NEK1, Homo sapiens, UniProt Q96PY6)",104
"MAP kinase-activated protein kinase 2 (MAPKAPK2, Homo sapiens, UniProt P49137)",100
"Wee1-like protein kinase (WEE1, Homo sapiens, UniProt P30291)",93.2
